Published values from different studies.
“And” joins repeats or separate records; there may be more than shown. ± marks the error that the study gave.

O=[N+]([O-])c1ccc(-c2ccc(O)cc2)c2cccnc12 — plasma concentration (ICR mice male, plasma; intravenous, 1 mg/kg, 1 h): 1.67 ng/mL
O=S(=O)(c1ccc(-c2ccc3nccc(Nc4ccncn4)c3c2)cc1)N1CCOCC1 — plasma concentration (female BALB/c mice, plasma; intraperitoneal, 10 mg/kg, 4 h): 2200 ng/mL and 1840 ng/mL and 27.6 ng/mL
COc1nc(-c2cc(C)c(N[C@@H](C)c3c(F)cc(F)cc3F)nn2)ccc1-n1cnc(C)c1 — plasma concentration (C57BL/6J mice, male, plasma; oral, 25 mg/kg daily for 9 days, 4 h after last dose): 5480 ng/mL
COc1cc(F)c([C@@H]2CNC(=O)[C@H]2NC(=O)Nc2ccccc2)c(F)c1 — plasma concentration (C57BL/6 mice, LPS challenge, plasma; oral, 3 mg/kg, 1.5 h post dose): 112 ± 50 nM
CC[C@H](C)[C@H](NC(=O)[C@H](CCC(=O)O)NC(=O)[C@H](CO)NC(=O)[C@@H](NC(=O)[C@@H](N)CO)C(C)C)C(=O)N[C@@H](CCC(N)=O)C(=O)N[C@@H](CC(C)C)C(=O)N[C@@H](CCSC)C(=O)N[C@@H](Cc1cnc[nH]1)C(=O)N[C@@H](CC(N)=O)C(=O)N[C@@H](CC(C)C)C(=O)NCC(=O)N[C@@H](CCCCN)C(=O)N[C@@H](Cc1cnc[nH]1)C(=O)N[C@@H](CC(C)C)C(=O)N[C@@H](CC(N)=O)C(=O)N[C@@H](CO)C(=O)N[C@@H](CCSC)C(=O)N[C@@H](CCC(=O)O)C(=O)N[C@@H](CCCNC(=N)N)C(=O)N[C@H](C(=O)N[C@@H](CCC(=O)O)C(=O)N[C@@H](Cc1c[nH]c2ccccc12)C(=O)N[C@@H](CC(C)C)C(=O)N[C@@H](CCCNC(=N)N)C(=O)N[C@@H](CCCCN)C(=O)N[C@@H](CCCCN)C(=O)N[C@@H](CC(C)C)C(=O)N[C@@H](CCC(N)=O)C(=O)N[C@@H](CC(=O)O)C(=O)N[C@H](C(=O)N[C@@H](Cc1cnc[nH]1)C(=O)N[C@@H](CC(N)=O)C(=O)N[C@@H](Cc1ccccc1)C(N)=O)C(C)C)C(C)C — plasma concentration (ELISA; female CD-1 mice, blood plasma; subcutaneous, 10 nmol/kg, 2 h): 0.038 nM
Cc1cc([C@@H](C)Nc2ccccc2C(=O)O)c2nc(N3CCC(F)(F)CC3)c(C#N)c(=O)n2c1 — plasma concentration (NOD SCID mice, HCC1954 xenograft; oral, 300 mg/kg once daily, 8 h): 279 ng/mL
O=Cc1cc2c(cc1F)C(=O)N(C1CCC(=O)NC1=O)C2 (stereo not drawn) — plasma concentration (CD-1 mice; intravenous, 1 mg/kg, 0.25 h): not detected
Cc1cc2sc(N)nc2c2cccnc12 — plasma concentration (LC-MS; BALB/c mice, female; intraperitoneal, 30 mg/kg, 2 h): 1110 ± 130 ng/mL
COc1nc(-c2cc(C)c(N[C@@H](C)c3cc(F)cc(F)c3)nn2)ccc1-n1cnc(C)c1 — plasma concentration (C57BL/6J mice, male, plasma; oral, 50 mg/kg daily for 9 days, 4 h after last dose): 23000 ng/mL

Excerpt of the above:
O=[N+]([O-])c1ccc(-c2ccc(O)cc2)c2cccnc12 — plasma concentration (ICR mice male, plasma; intravenous, 1 mg/kg, 1 h): 1.67 ng/mL
